Measured values collected from several papers.
Every numbered part comes from another study and shows a few of its results, in no order.

Series 1
Target: Histone acetyltransferase KAT6A, winged helix 2, GST fusion (KAT6A, Homo sapiens, UniProt Q92794, residues 85-181)
Method: protein binding microarray
Form: double-stranded DNA, one strand shown
Matrix: in vitro
Tested at: not given
Notes: 8-mer, flanks averaged, mean of 2 arrays, mostly near background
Reference: not given
Reading: higher = stronger binding
Residues (chain): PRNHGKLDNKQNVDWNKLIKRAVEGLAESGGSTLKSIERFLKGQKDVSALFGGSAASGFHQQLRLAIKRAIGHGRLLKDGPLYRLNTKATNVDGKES
Strand	E-score
AGGATTAA	-0.0462
ATCTCCTA	-0.214
ACGTAACA	-0.196
GACATTAA	-0.0855
CGCATGGA	0.0614
CAAGCGAG	0.115
AAGAACCG	0.0325
GCACACCA	-0.0441
ATAAGACA	-0.147
CCTTGAAA	-0.0833
CAGTCCAC	-0.145
ACCTGTCA	-0.181
AGGGCCCT	-0.11
AGCTCGAT	0.146

Series 2
Target: Prothrombin, mature alpha-thrombin (F2, Homo sapiens, UniProt P00734)
Method: aptamer microarray, sandwich
Form: DNA with 2'F-ANA
Matrix: in vitro
Tested at: 200 nM
Notes: whole 15-mer aptamer, many near background
With: Cy3 exosite-II aptamer, 400 nM
Reading: higher = stronger binding
Strand: GGTTGGTGTGGTTGG
Modification	mean fluorescence intensity
2'F-ANA at 1 2 4 6 7 10 15	58.8 a.u.
2'F-ANA at 1 2 7 9 10 11 14	48.3 a.u.
2'F-ANA at 4 6 7 8 12 13	443 a.u.
2'F-ANA at 1 3 4 5 8 9 11 13 14 15	55.4 a.u.
2'F-ANA at 2 3 7 13	837 a.u.
2'F-ANA at 5 6 7 8 11 12	131 a.u.
2'F-ANA at 1 2 3 8 10 11 12 13	84.3 a.u.
2'F-ANA at 1 2 3 4 6 7 8 9 11 12 15	220 a.u.

Series 3
Target: Probable WRKY transcription factor 33, N-terminal DNA-binding domain (WRKY33, Arabidopsis thaliana, UniProt Q8S8P5, residues 169-264)
Method: DNA-protein interaction ELISA
Form: double-stranded DNA, one strand shown
Matrix: in vitro, bacterial lysate
Tested at: not given
Notes: whole dsDNA probe, crude lysate protein
Reference: highest signal in screen
Reading: higher = stronger binding
Target sequence (chain): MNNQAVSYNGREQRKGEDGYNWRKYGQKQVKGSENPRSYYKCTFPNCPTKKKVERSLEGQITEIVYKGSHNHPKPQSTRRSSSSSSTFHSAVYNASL
Strand	relative absorbance
AAAAAAGCTAGTCGATTCGGCTTAGAAAAA	21.9 % of maximum
AAAAAACACAGCATTAGGCTATCGGTAAAA	20.4 % of maximum
AAAAAATGCCCTTTTTATCTTTATGTAAAA	26.9 % of maximum
AAAAAACCTTCCCCCTCTTCTGCCTTAAAA	31 % of maximum
AAAAAATCTTCTTGTTTCTTATTTCTAAAA	25.9 % of maximum
AAAAAAGTTCGGGGCTTGGTTTGGAAAAAA	22.7 % of maximum
AAAAAAGGGAGTCATGCTTCTTGTTTAAAA	30.7 % of maximum
AAAAAAGGCGGTCGTAGTTGTGGGAGAAAA	22.4 % of maximum
AAAAAACCTCTTGTCTCTGCTCTCCCAAAA	22.4 % of maximum
AAAAAACGGGATTCGAAACTTTTTGTAAAA	19.7 % of maximum
AAAAAATGCCGAGACCCCATGCCGGCAAAA	16.6 % of maximum

Single results of other studies
Substance	target	assay	system	setting	scale	endpoint	value
PhoQ, residues 284 288 289 292 302 303 AMDMFI	PhoP, residues 12 14 15 18 19 HEGLL (Escherichia coli, UniProt P23836)	Sort-seq, refers to: YFP reporter	E. coli	PhoQ-PhoP variant library, with: 10 µM Mg2+	reference: high Mg2+ state, higher = stronger signaling	fold induction	2.8
